Published values from different studies.
Each numbered part is a random draw from the data of one study; scales do not carry over between parts. Values joined by “and” are separate records of one study, mostly repeats; a detail may differ.
Chain of UniProt P07949 (whole entry, unmodified, looked up): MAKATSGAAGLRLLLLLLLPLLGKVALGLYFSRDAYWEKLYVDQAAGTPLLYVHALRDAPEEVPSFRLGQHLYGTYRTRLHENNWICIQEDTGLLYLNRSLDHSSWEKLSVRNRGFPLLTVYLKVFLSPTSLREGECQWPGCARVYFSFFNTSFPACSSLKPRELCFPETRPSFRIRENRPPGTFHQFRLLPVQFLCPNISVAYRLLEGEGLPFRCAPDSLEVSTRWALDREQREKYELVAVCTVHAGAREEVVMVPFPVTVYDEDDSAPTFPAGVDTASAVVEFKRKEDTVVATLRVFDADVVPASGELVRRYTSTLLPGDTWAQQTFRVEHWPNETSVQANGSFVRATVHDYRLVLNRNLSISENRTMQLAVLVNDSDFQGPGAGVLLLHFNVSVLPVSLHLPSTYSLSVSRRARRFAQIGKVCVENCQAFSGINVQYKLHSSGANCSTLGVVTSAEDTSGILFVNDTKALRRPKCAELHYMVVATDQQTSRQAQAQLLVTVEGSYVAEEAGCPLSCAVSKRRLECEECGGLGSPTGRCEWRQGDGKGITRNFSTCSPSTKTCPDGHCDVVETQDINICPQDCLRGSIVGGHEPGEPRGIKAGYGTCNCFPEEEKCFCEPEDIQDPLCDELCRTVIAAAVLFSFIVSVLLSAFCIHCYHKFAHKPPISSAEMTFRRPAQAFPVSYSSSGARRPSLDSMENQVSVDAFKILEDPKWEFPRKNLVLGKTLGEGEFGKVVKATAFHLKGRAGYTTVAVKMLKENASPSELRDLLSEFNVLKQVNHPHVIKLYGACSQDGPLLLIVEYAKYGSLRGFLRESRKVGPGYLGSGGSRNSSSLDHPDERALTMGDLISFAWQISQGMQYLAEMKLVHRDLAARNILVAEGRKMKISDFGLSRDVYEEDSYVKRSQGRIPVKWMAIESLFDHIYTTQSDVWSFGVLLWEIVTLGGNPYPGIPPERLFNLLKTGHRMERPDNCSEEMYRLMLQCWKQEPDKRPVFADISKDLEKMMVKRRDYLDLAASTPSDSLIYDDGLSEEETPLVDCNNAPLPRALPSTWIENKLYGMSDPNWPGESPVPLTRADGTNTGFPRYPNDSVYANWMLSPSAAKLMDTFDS
Chain of UniProt Q14164 (whole entry, looked up): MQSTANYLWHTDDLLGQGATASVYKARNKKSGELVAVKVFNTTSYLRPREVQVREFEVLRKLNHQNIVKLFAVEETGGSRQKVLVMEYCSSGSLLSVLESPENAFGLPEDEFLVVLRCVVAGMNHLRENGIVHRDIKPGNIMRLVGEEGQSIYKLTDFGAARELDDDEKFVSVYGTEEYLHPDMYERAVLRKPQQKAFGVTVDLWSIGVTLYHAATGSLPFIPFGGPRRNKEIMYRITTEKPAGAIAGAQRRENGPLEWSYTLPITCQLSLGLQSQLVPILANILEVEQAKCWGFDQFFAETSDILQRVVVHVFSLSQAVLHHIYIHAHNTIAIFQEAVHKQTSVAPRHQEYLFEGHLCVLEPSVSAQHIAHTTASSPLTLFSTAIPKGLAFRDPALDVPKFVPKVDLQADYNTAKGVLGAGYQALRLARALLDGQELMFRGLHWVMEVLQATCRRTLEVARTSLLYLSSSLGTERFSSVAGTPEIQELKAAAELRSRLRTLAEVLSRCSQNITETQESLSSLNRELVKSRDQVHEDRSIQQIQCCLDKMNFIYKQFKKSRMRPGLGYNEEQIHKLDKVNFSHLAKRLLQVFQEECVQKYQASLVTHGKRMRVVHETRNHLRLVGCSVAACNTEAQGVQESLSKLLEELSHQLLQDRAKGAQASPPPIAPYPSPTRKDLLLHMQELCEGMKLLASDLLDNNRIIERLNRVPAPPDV
Chain of UniProt Q6PHR2 (whole entry, looked up): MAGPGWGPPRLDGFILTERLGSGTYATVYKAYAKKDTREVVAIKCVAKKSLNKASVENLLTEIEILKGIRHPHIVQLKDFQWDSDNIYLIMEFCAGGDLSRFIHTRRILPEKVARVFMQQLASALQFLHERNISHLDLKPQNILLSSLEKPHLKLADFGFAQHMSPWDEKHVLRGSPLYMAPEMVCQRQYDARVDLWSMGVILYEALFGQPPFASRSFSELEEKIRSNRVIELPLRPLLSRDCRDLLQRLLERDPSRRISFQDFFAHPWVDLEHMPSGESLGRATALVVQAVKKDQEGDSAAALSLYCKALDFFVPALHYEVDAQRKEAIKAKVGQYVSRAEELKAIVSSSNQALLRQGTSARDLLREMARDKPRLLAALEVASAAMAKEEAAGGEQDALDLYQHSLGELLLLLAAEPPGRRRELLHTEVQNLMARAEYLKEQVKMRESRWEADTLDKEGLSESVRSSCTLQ
Chain of UniProt P53667 (whole entry, looked up): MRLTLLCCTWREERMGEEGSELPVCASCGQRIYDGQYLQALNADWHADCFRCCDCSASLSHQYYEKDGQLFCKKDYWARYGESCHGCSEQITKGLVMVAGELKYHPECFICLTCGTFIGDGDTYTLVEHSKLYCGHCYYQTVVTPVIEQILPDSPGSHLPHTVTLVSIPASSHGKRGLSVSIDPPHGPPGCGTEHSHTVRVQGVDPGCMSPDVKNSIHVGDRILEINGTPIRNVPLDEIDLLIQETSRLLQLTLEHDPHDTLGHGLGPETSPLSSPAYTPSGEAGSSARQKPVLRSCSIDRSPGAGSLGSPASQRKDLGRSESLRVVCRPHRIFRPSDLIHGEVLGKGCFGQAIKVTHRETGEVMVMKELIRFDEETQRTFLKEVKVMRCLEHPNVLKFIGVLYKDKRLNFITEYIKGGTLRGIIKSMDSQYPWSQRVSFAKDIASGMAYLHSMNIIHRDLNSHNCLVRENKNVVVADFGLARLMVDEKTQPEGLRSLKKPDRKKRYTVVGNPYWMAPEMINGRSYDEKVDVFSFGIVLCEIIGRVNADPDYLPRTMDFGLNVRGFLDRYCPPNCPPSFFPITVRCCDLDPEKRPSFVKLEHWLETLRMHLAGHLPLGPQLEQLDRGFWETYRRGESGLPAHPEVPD
Chain of UniProt P24723 (whole entry, looked up): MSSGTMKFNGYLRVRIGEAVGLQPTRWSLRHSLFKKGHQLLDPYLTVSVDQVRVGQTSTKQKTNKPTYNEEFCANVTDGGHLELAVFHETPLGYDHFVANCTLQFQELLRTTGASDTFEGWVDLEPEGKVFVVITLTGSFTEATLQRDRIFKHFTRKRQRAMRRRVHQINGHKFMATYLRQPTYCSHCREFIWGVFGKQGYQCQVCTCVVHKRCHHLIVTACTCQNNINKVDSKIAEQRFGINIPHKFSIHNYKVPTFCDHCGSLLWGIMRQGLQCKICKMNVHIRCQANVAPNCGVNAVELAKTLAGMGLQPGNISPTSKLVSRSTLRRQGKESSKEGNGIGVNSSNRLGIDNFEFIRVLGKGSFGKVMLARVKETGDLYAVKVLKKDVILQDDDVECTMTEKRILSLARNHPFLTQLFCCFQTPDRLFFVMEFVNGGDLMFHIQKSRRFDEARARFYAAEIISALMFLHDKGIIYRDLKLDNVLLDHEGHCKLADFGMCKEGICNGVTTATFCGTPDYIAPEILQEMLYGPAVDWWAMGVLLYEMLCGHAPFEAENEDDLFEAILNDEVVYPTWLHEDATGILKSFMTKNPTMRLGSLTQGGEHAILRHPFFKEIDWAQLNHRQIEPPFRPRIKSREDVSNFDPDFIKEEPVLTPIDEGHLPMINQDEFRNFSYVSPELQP

Set 1 — species: human patients; medium: plasma
Compound: COc1ccc(-c2c(Nc3ccccn3)[nH]c3c(C4=CCCCC4)c(-c4ccccc4)nn3c2=O)cc1
test	conditions	mean concentration [ng/mL]
item: S-adenosylmethionine	200 mg once daily, 8 h	16.2
item: methionine	400 mg once daily, 0 h	82100
item: S-adenosylmethionine	100 mg once daily, 4 h	19.9
item: methionine	100 mg once daily, 0 h	89500
item: methionine	400 mg once daily, 2 h	82400
item: S-adenosylmethionine	100 mg once daily, 0 h	19.3
item: methionine	150 mg once daily, 4 h	129000
item: methionine	400 mg once daily, 8 h	85300
item: S-adenosylmethionine	200 mg once daily, 6 h	15.3

Set 2 — read-out: cell-free assay; method: competition with immobilised ligand; concentration: 0.1 µM
SMILES: O=C(NCCCC1CCCCC1)c1ccc(CNC(=O)c2cnn(-c3ccccc3)c2C(F)(F)F)cc1
target	remaining binding [%]
MAP3K6 (Homo sapiens, UniProt O95382)	100
ERN1 (Homo sapiens, UniProt O75460)	94
GSK3A (Homo sapiens, UniProt P49840)	100
ULK3 (Homo sapiens, UniProt Q6PHR2)	100
RIOK2 (Homo sapiens, UniProt Q9BVS4)	100
PRKG1 (Homo sapiens, UniProt Q13976)	100
LRRK2 (Homo sapiens, UniProt Q5S007)	57
LIM domain kinase 1 (LIMK1, Homo sapiens, UniProt P53667)	100
TTK (Homo sapiens, UniProt P33981)	91
RIPK1 (Homo sapiens, UniProt Q13546)	89
CSNK1A1 (Homo sapiens, UniProt P48729)	99
RIOK3 (Homo sapiens, UniProt O14730)	100
CAMK2G (Homo sapiens, UniProt Q13555)	100
Ribosomal protein S6 kinase alpha-3, C-terminal kinase domain (RPS6KA3, Homo sapiens, UniProt P51812)	100
CDKL3 (Homo sapiens, UniProt Q8IVW4)	100
PIKFYVE (Homo sapiens, UniProt Q9Y2I7)	65
IKBKE (Homo sapiens, UniProt Q14164)	78
MAP3K12 (Homo sapiens, UniProt Q12852)	100
PRKCH (Homo sapiens, UniProt P24723)	100
CDKL2 (Homo sapiens, UniProt Q92772)	100
EGFR (Homo sapiens, UniProt P00533, L861Q)	100
RET (Homo sapiens, UniProt P07949, M918T)	100
MAPK3 (Homo sapiens, UniProt P27361)	93
BMPR1B (Homo sapiens, UniProt O00238)	92
NEK9 (Homo sapiens, UniProt Q8TD19)	100

Set 3 — read-out: enzyme activity; action: inhibitor; concentration: 0.5 µM; baseline: control
Target: Rho-associated protein kinase 2 (ROCK2, Homo sapiens, UniProt O75116)
Chain of UniProt O75116 (whole entry, looked up): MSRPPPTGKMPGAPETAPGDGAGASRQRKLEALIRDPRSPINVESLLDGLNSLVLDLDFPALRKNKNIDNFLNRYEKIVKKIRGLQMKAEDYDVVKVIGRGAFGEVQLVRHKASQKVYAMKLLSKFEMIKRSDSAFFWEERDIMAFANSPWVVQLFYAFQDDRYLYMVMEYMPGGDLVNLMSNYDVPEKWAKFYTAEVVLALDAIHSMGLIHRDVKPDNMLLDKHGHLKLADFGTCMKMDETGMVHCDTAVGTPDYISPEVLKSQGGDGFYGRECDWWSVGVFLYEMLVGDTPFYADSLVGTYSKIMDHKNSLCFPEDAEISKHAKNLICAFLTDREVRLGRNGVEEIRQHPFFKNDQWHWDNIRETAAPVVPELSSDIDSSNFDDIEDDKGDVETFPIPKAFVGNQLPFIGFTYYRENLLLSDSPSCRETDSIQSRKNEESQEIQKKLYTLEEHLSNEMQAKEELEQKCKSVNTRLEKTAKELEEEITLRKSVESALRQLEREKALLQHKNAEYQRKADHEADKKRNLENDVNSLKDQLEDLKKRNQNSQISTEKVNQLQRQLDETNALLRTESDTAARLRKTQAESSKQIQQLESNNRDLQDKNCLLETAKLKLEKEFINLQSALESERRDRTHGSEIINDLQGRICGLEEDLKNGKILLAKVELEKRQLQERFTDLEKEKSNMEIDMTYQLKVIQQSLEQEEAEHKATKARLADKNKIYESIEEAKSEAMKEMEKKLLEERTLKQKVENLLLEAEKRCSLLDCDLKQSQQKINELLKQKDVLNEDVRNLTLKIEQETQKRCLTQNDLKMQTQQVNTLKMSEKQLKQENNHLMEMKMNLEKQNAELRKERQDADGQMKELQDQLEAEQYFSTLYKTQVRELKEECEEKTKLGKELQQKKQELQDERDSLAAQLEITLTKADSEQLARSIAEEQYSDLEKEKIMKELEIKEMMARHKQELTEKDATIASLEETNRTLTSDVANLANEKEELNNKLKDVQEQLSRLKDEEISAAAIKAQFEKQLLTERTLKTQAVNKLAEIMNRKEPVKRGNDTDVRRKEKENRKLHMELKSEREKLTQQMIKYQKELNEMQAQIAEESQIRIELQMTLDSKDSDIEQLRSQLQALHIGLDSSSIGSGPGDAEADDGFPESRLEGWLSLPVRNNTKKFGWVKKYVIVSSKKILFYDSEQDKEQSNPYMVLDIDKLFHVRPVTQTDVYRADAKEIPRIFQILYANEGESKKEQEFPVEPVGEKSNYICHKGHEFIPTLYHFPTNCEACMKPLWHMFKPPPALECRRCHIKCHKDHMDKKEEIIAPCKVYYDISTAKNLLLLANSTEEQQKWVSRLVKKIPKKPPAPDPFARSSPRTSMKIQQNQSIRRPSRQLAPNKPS
Compound	remaining activity
COc1cc2ncnc(Nc3cccc(Cl)c3)c2cc1OC	92.6%
CCN(CC)C(=O)c1ccc(Nc2nc(OCC3CCCCC3)c3[nH]cnc3n2)cc1	39.8%
c1ccc(-c2cnc(Nc3ccc(OCCN4CCCC4)cc3)s2)cc1	91.7%
COc1cc2c(cc1OC)-c1[nH]nc(Nc3cccc(F)c3)c1C2	95.2%
Cc1cc2ncc(-c3ccccc3)nc2cc1C	88.1%
O=C1C(Cl)=C(N2C(=O)CCC2=O)C(=O)c2ccccc21	91.5%
O=C1c2ccccc2-c2n[nH]c3cccc1c23	89.4%
CCN(CC)CCNC(=O)c1c(C)[nH]c(/C=C2\C(=O)Nc3ccc(Cl)cc32)c1C	73.5%
O=c1cc(-c2cccc3c2Sc2ccccc2S3)oc(N2CCOCC2)c1	109%
Cc1nc2cc3nc(-c4cccs4)cnc3cc2n1C	107%
CN(C)C[C@H]1CCn2c(c(C3=C(c4cn(C)c5ccccc45)C(=O)NC3=O)c3ccccc32)C1	98.9%
CN([C@@H](Cc1ccc(OS(=O)(=O)c2cccc3cnccc23)cc1)C(=O)N1CCN(c2ccccc2)CC1)S(=O)(=O)c1cccc2cnccc12	105%
COc1cc2ncnc(Nc3ccc(O)c(Br)c3)c2cc1OC	89.9%
Cc1cn(-c2cc(NC(=O)c3ccc(C)c(Nc4nccc(-c5cccnc5)n4)c3)cc(C(F)(F)F)c2)cn1	97.1%
CCOc1nc(NC(=O)Cc2cc(OC)ccc2OC)cc(N)c1C#N	93.1%
O=C(NC(NC(=S)Nc1ccc(F)c([N+](=O)[O-])c1)C(Cl)(Cl)Cl)C(c1ccccc1)c1ccccc1 (centres unmarked)	109%
C[C@@H]1CCN(C(=O)CC#N)C[C@@H]1N(C)c1ncnc2[nH]ccc12	69.9%
Nc1cccc(-c2cc3c(Oc4cccc(O)c4)ncnc3[nH]2)c1	94.5%
O=C(Nc1cccc(Nc2nccc(Nc3cccc(C(F)(F)F)c3)n2)c1)C1CC1	105%
N#Cc1c(NC(=O)c2cccc3ccccc23)sc2c1CCCC2	98%
N#C/C(=C\c1ccc(O)c(O)c1)C(=O)NCc1ccccc1	94%
Ic1cccc(CSc2nnc(-c3ccncc3)o2)c1	89%
Cn1nc2c3c(cccc31)C(=O)c1ccccc1-2	92.3%
c1ccc(-c2[nH]ncc2-c2ccnc3ccccc23)nc1	100%

Set 4 — read-out: binding; method: NanoBRET; cells: HEK293 (live); direction: lower = stronger binding
SMILES: CCC(=O)N1CCN(c2nc(OC[C@@H]3CCCN3C)nc3c2CCN(c2cccc4cccc(Cl)c24)C3)C[C@@H]1CC#N
Target: GTPase HRas (HRAS, Homo sapiens, UniProt P01112)
conditions	target engagement
1.046 µM	108% and 120%
1.523 µM	132% and 156% and 121%
0.5686 µM	112% and 113% and 104%
0.09151 µM	96.3% and 101% and 100%

For quick reference, copied from above (set 3):
Compound	remaining activity
Cc1nc2cc3nc(-c4cccs4)cnc3cc2n1C	107%
c1ccc(-c2cnc(Nc3ccc(OCCN4CCCC4)cc3)s2)cc1	91.7%
CCN(CC)CCNC(=O)c1c(C)[nH]c(/C=C2\C(=O)Nc3ccc(Cl)cc32)c1C	73.5%
CCOc1nc(NC(=O)Cc2cc(OC)ccc2OC)cc(N)c1C#N	93.1%
